{"data": "Experimental data gathered from unrelated publications", "PTPN1": "Tyrosine-protein phosphatase non-receptor type 1 (PTPN1, Homo sapiens, UniProt P18031)", "note": "Each line is one published result; not all experiments were run side by side. Several values in a cell are separate wells, animals, samples, runs or records. ± gives the spread as reported.", "chain of UniProt Q9Y239 (whole entry, looked up)": "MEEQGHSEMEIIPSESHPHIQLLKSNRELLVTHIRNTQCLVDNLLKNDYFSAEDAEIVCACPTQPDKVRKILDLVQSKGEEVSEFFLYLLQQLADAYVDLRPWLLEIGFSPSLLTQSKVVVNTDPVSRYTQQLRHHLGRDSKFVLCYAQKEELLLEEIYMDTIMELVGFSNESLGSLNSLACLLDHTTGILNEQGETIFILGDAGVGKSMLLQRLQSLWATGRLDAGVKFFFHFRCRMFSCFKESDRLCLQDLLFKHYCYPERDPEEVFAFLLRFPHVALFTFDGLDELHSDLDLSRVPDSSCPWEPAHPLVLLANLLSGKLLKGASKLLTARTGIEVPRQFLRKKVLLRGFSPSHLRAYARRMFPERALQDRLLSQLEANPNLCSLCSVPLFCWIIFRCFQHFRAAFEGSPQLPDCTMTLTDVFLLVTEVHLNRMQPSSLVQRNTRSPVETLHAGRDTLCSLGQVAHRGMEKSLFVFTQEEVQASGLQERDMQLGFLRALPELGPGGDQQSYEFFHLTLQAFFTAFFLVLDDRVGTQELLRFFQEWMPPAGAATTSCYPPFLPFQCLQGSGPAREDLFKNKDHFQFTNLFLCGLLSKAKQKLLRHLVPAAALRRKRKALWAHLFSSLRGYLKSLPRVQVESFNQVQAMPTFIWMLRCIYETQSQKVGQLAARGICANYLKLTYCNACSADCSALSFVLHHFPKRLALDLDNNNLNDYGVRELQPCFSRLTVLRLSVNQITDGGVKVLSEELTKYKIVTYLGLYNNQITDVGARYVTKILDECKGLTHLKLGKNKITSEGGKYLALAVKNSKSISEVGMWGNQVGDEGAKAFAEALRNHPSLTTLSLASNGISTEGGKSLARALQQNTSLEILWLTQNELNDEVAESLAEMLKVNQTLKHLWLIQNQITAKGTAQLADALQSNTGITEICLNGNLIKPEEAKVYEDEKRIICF", "chain of UniProt Q16774 (whole entry, looked up)": "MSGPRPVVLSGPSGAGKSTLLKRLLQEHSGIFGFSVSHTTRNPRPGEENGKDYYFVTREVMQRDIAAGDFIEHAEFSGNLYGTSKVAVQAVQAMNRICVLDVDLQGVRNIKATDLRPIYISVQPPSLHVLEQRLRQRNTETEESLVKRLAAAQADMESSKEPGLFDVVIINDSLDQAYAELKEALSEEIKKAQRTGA", "chain of UniProt P18031 (whole entry, looked up)": "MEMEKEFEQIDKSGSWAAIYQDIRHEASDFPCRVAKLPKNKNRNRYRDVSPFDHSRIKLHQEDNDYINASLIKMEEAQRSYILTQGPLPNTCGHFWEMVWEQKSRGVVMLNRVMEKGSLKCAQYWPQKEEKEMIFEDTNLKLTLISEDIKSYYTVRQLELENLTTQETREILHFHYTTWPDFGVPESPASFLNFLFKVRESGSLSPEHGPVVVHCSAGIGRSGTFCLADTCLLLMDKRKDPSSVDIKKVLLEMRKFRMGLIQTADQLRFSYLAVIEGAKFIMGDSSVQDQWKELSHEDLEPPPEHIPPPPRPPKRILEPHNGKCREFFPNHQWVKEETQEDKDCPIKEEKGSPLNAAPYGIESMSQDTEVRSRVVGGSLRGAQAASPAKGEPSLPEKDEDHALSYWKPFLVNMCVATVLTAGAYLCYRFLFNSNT", "chain of UniProt Q62351 (whole entry, looked up)": "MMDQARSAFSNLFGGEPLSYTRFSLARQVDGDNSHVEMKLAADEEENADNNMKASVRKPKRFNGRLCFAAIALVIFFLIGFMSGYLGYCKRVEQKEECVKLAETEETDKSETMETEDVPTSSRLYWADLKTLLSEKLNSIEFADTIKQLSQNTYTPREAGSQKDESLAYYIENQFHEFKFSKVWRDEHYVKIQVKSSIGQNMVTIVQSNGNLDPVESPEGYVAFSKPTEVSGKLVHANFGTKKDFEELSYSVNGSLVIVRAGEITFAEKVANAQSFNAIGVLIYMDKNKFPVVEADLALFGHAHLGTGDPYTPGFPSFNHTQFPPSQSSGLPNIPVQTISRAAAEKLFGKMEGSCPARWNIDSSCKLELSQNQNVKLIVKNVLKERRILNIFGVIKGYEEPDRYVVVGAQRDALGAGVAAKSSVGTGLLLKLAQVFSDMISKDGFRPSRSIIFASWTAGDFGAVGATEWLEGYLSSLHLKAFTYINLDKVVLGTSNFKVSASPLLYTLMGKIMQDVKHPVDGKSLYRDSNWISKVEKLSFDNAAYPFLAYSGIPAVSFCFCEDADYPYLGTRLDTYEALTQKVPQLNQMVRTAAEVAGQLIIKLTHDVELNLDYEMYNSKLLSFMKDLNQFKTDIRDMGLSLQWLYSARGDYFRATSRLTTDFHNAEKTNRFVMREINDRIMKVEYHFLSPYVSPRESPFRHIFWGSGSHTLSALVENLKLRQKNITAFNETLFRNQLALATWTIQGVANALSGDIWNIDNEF", "chain of UniProt P23458 (whole entry, looked up)": "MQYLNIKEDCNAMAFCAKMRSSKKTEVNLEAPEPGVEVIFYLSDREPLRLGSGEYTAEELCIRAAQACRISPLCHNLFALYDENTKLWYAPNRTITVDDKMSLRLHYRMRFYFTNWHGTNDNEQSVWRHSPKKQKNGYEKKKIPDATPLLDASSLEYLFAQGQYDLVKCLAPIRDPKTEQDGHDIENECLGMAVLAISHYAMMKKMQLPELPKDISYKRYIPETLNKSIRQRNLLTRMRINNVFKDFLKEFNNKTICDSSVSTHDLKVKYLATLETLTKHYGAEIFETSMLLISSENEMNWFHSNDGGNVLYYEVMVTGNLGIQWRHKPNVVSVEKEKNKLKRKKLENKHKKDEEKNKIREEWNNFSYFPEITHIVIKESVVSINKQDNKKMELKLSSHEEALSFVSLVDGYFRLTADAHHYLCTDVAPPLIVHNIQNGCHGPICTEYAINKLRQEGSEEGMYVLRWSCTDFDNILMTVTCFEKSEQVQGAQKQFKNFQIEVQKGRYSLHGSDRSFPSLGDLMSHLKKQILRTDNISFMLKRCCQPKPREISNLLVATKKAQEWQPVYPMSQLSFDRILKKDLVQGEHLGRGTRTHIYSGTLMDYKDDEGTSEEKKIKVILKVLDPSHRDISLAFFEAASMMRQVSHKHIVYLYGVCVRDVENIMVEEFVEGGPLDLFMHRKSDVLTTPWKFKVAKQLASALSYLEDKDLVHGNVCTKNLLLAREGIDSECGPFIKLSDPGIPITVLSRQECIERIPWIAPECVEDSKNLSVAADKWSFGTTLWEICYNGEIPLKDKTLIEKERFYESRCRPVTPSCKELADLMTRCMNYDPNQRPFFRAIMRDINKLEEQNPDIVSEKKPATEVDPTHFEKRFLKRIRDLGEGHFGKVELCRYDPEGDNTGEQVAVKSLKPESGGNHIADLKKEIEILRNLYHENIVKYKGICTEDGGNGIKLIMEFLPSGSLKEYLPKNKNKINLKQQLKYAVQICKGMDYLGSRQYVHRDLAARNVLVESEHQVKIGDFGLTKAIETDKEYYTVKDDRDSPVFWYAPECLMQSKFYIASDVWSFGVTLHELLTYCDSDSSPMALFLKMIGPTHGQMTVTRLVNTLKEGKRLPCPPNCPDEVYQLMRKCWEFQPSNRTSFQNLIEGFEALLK", "chain of UniProt Q13224 (whole entry, unmodified, looked up)": "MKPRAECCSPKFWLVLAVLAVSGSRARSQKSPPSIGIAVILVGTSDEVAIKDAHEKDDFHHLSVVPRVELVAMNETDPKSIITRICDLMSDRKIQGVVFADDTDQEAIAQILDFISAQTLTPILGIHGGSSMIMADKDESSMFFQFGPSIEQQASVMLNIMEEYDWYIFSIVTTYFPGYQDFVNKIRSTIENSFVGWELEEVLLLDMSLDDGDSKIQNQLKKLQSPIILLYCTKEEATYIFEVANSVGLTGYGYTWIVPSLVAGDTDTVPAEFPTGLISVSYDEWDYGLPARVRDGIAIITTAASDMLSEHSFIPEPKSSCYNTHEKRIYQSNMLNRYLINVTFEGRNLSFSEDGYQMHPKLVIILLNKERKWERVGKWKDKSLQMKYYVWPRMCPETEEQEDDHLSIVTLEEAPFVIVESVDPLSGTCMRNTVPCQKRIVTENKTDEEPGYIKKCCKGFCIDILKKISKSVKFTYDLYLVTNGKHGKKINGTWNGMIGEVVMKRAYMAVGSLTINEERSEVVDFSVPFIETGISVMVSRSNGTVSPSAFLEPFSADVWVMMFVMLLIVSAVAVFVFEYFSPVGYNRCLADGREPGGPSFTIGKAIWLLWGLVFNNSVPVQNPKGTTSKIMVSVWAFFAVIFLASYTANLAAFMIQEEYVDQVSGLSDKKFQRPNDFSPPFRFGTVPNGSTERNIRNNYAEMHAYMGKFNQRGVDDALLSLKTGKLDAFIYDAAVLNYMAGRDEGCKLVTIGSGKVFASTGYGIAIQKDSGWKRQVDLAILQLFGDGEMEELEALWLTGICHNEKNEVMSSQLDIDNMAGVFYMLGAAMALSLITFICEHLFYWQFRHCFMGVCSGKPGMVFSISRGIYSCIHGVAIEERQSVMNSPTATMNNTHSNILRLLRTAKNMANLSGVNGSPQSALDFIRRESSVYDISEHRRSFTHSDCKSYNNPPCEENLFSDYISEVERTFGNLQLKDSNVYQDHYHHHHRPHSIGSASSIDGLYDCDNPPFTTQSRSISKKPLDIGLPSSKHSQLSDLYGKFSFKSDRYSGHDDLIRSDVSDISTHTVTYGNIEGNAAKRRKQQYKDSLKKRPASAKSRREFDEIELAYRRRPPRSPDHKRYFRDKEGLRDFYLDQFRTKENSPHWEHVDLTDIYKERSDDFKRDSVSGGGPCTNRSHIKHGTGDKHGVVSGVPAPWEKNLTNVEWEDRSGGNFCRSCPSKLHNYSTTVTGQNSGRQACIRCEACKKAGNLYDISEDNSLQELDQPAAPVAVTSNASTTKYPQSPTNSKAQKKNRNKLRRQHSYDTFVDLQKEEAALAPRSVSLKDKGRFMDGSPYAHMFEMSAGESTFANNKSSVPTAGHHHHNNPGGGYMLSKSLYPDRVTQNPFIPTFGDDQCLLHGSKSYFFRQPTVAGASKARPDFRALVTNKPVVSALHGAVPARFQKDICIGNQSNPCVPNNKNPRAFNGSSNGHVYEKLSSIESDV"}
{"SMILES": "CCCCCCCCCOC(C)=O", "target": "uncharacterized protein (Spodoptera exigua, UniProt F1CEY0)", "assay": "binding, competitor, fluorescence displacement", "setting": "20 µM, pH 7.4, together with: 1-NPN 20 µM", "scale": "relative to: 1-NPN alone", "quantity": "relative fluorescence", "result": "42.8%"}
{"SMILES": "CC[C@@H](C)[C@@H](NC(=O)[C@@H](Cc1ccc(O)cc1)NC(=O)[C@H]1CCCN1C(=O)[C@@H](CCCNC(=N)N)NC(=O)[C@H](N)Cc1c[nH]cn1)C(=O)N[C@H](C)C(=O)N[C@H](Cc1c[nH]cn1)C(=O)N[C@H](CCCNC(=N)N)C(=O)N[C@@H](C(=O)N[C@H](Cc1ccc(O)cc1)C(=O)N[C@H](CO)C(=O)N[C@H](Cc1ccccc1)C(N)=O)C(C)C", "target": "Transferrin receptor protein 1 (Tfrc, Mus musculus, UniProt Q62351)", "assay": "flow cytometry", "system": "B16", "setting": "48 h, unit not given", "scale": "relative to: 0 h", "quantity": "surface TFRC expression", "result": 0.487}
{"SMILES": "OC[C@H]1O[C@@H](Oc2cc3c(O)cc(O)cc3[o+]c2-c2ccc(O)cc2)[C@H](O)[C@@H](O)[C@@H]1O", "target": "Albumin (ALB, Homo sapiens, UniProt P02768)", "assay": "van't Hoff analysis", "setting": "concentration not given", "quantity": "binding enthalpy change", "result": "-5.34 kcal/mol"}
{"SMILES": "COC(=O)c1cc(C(C)=NNc2nc(-c3ccc4c(c3)OCCCO4)cs2)ccc1O", "target": "PTPN1", "assay": "enzyme activity, inhibitor, Lineweaver-Burk kinetics", "setting": "1.5 µM", "scale": "relative to: uninhibited control", "quantity": "Vmax decrease", "result": "25%"}
{"SMILES": "CC(C(=O)Nc1c(F)cccc1F)N1CCN(c2ccccc2)CC1 (stereo not drawn)", "target": "Short transient receptor potential channel 3 (TRPC3, Homo sapiens, UniProt Q13507)", "assay": "ion current, GCaMP6 calcium imaging", "system": "HEK293 transfected", "setting": "20 µM, unit not given, together with: 50 µM OAG", "scale": "relative to: control", "quantity": "peak Ca2+ influx", "result": "0.97 ± 0.09"}
{"SMILES": "CC[C@H](C)[C@@H]1NC(=O)[C@H](Cc2ccc(O)cc2)NC(=O)[C@H](CC(C)C)NC(=O)[C@@H]2CCCN2C(=O)[C@@H](NC(=O)[C@H](CCCNC(=N)N)NC(=O)[C@H](CCCNC(=N)N)NC(C)=O)CSSC[C@@H](C(=O)N[C@@H](CCCNC(=N)N)C(=O)N[C@@H](CCCNC(=N)N)C(N)=O)NC(=O)[C@H](C(C)C)NC(=O)[C@@H]2CCCN2C(=O)[C@H](CC(=O)O)NC(=O)[C@H](Cc2ccc(O)cc2)NC(=O)[C@H](Cc2cscn2)NC1=O", "target": "GTPase KRas, GDP-bound (KRAS, Homo sapiens, UniProt P01116, G12D)", "assay": "affinity selection mass spectrometry", "setting": "mixture library 2, together with: protein titration up to 5 µM", "scale": "lower is stronger binding", "quantity": "lowest bound protein concentration", "result": "0.16 µM"}
{"SMILES": "CC(=O)N[C@H]1C(O)O[C@H](CO)[C@@H](O)[C@@H]1O[C@H](C)C(=O)N[C@@H](C)C(=O)N[C@H](CCC(=O)O)C(=O)O (stereo partly drawn)", "target": "Nucleotide-binding oligomerization domain-containing protein 1 (NOD1, Homo sapiens, UniProt Q9Y239)", "assay": "reporter gene, agonist", "system": "HEK-Blue mNOD1 reporter cells", "setting": "200 nM, 18 h", "scale": "relative to: untreated", "quantity": "SEAP fold change", "result": "0.967 and 1.03 and 1.07"}
{"SMILES": "Nc1nc2c(ncn2[C@@H]2O[C@H](COP(=O)(O)O)[C@@H](O)[C@H]2O)c(=O)[nH]1", "target": "GUK1 (Homo sapiens, UniProt Q16774)", "assay": "enzyme activity, NADH-coupled", "setting": "500 µM, together with: KCl 150 mM", "quantity": "reaction velocity", "result": "0.0737 µM/s and 0.0678 µM/s and 0.0603 µM/s"}
{"SMILES": "C[C@H](CCC(C)(C)O)[C@H]1CC[C@H]2[C@@H]3CC=C4C[C@@](C)(O)CC[C@]4(C)[C@H]3CC[C@]12C", "target": "Glutamate NMDA receptor; GRIN1/GRIN2B (GRIN1/GRIN2B, Homo sapiens, UniProt Q05586+Q13224, F754A)", "assay": "ion current, positive allosteric modulator, two-electrode voltage clamp", "system": "Xenopus oocytes", "setting": "10 µM, GluN1-F754A mutant, together with: 100 µM glutamate and glycine", "scale": "relative to: absence of compound", "quantity": "current potentiation", "result": "157 ± 4.4%"}
{"SMILES": "NC/C(=C\\F)COc1cccc(Cn2c(=S)[nH]c(=O)c3[nH]cnc32)c1", "target": "Amine oxidase copper-containing 3 (Canis lupus familiaris, UniProt A0A8I3MYY3)", "assay": "inhibitor", "system": "dog adipose tissue", "setting": "1 µM", "quantity": "inhibition", "result": "102%"}
{"SMILES": "c1coc(-c2n[nH]cc2-c2ccnc3ccccc23)c1", "target": "Aurora kinase (IPL1, Candida albicans, UniProt Q59S66)", "assay": "kinase binding, MIB/MS competition", "system": "Candida albicans lysate", "setting": "1 µM", "scale": "relative to: DMSO, negative = stronger binding", "quantity": "log2 fold change", "result": -0.25}
{"SMILES": "N[C@H](CNC(=O)c1ccc(-c2cccc(F)c2F)s1)C(=O)O", "target": "Glutamate receptor ionotropic, NMDA 1, with GluN2D (Grin1, Rattus norvegicus, UniProt P35439)", "setting": "together with: glutamate 300 µM", "quantity": "Hill slope", "result": 1.45}
{"SMILES": "Cc1cc(-c2ccnc3[nH]cc(F)c23)cc(F)c1[C@@]1(O)[C@H](C)CN(C2CCS(=O)(=O)CC2)C[C@@H]1C", "target": "Tyrosine-protein kinase JAK1 (JAK1, Homo sapiens, UniProt P23458)", "assay": "ATP/ADP probe binding, KiNativ", "system": "HEK293T lysate", "setting": "1 µM, activation loop domain 2", "quantity": "probe labelling inhibition", "result": "15.5%"}
{"SMILES": "Nc1nc2c(ncn2[C@@H]2O[C@H](COP(=O)(O)OP(=O)(O)O[C@H]3O[C@H](CO)[C@@H](O)[C@H](O)[C@@H]3O)[C@@H](O)[C@H]2O)c(=O)[nH]1", "target": "AncA ancestral enzyme", "assay": "substrate, GDP-Glo GDP release", "setting": "pH 6.5, 27 °C, apparent Km, together with: 25 mM mannose acceptor", "quantity": "Km", "result": "310 ± 20 µM"}
{"SMILES": "O=[N+]([O-])c1ccc(OP(=O)(O)O)cc1", "target": "PTPN1", "assay": "substrate", "quantity": "Km", "result": "580 µM"}
